Measurements pooled from the literature.
Lines come from different studies, so protocols differ. Values joined by “and” are separate records of one study, mostly repeats; a detail may differ. ± marks the error that the study gave.

Compound | cell line | test | system | conditions | scale | endpoint | result
CC1(C)CCC(CN2CCN(c3ccc(C(=O)NS(=O)(=O)c4ccc(NCC5CCOCC5)c([N+](=O)[O-])c4)c(Oc4cnc5[nH]ccc5c4)c3)CC2)=C(c2ccc(Cl)cc2)C1 | MOLM-13 resistant to compound | cell growth | – | – | – | GI50 | > 4 µM
COc1ccc(NC(=S)N/N=C/c2cccc3cc4ccccc4nc23)cc1 | HeLa | TMRE flow cytometry | – | IC12.5, 48 h, unit not given | baseline: DMSO control | mitochondrial membrane potential | 1.03 ± 0.4
CCCCCN1C[C@H](O)[C@@H](O)[C@H](O)[C@@H]1CO | Sandhoff disease patient fibroblasts | glycosphingolipid lowering, LC-MS/MS, measured: GM3 d18:1/20:0 | human | – | – | IC50 | 0.641 µM
Nc1ncnc2c1ncn2[C@@H]1O[C@H](CO)[C@@H](O)[C@H]1O | activated human T cells | – | – | 31.6 µM | higher = more IFNγ | IFNγ production | 240 a.u. and 180 a.u. and 157 a.u.
Cc1nn(-c2nc3c(F)cc(F)cc3s2)c(O)c1C(c1ccc(C(F)(F)F)cc1)c1c(C)nn(-c2nc3c(F)cc(F)cc3s2)c1O | THP1-Dual | IFN luciferase reporter | – | 40 µM, together with: HT-DNA | – | inhibition | 101%
CCCCCCCCCCCCCCCCCCOc1cccc(CC(=O)OCC[N+]2(C)CCOCC2)c1 | NSCLC panel (nine cell lines) | – | – | 10 µM | – | mean growth inhibition | 7.6%
COc1ncccc1CN[C@@H]1C[C@H]1c1ccccc1 (racemic) | THP-1 cells expressing NTR | MTS | – | 72 h | – | GI50 | > 50 µM
CCCCN1C[C@H](O)[C@@H](O)[C@@H](O)[C@H]1CO | sample A patient fibroblasts | GlcCer level lowering, LC-MS/MS, measured: GlcCer d18:1/24:1 | – | 216 h | – | IC50 | 43.4 µM
COc1cnc2cccc(N3CCc4c(cc(Cn5ccnc5C)cc4-c4cn(C)nc4C(F)(F)F)C3=O)c2c1 | HMC18 | cell growth | – | 120 h | – | EC50 | 21.9 µM
CCCCN1C[C@H](O)[C@@H](O)[C@H](O)[C@H]1CO | Sandhoff disease patient fibroblasts | glycosphingolipid lowering, LC-MS/MS, measured: Gb3 d18:0/22:0 | – | – | – | IC50 | 3.18 µM
COc1ccc(-c2ccc3c(N4CCOC[C@@H]4C)nc(N4CCOC[C@@H]4C)nc3n2)cc1CO | SNU-1040 | – | – | 0.33 µM, 72 h, 100% DMSO | baseline: vehicle | cell growth | 79.6%
O=C(/C=C/C=C/C=C/C1CCCCC1)NC1=C[C@@](O)(/C=C/C=C/C=C/C(=O)NC2=C(O)CCC2=O)[C@@H]2O[C@@H]2C1=O | NCI-H1435 | cell growth, CellTiter-Glo | – | 78 h | – | GI50 | 15.7 µM
COc1c(C)c(OC)c(C(=O)/C=C/c2ccccc2)c(OC)c1C | KKU-M213 | SRB | – | – | baseline: normal over KKU-M213 IC50 | selectivity index | 0.8
Cc1ccc(NS(=O)(=O)c2cccc(C#N)c2)c2[nH]cc(C#N)c12 | NKM-1 | Western blot | – | concentration not given, 48 h | – | PCNA protein level | no effect
O=C1[C@H]2CCCN2[C@H](c2cccc3c2OCO3)N1c1ccc(Cl)c(Cl)c1 (racemic) | PC-12 | – | – | 10 µM | – | mutant huntingtin aggregates per cell | no effect
CCn1cc(-c2cc(Cn3ccnc3)cc3c2CCN([C@H](c2cc(OC)ccn2)C2CC2)C3=O)c(C(F)(F)F)n1 | PLC-PRF-5 | cell growth, inhibitor | – | 120 h | – | EC50 | > 30 µM
C=CCn1c(=O)c2cnc(Nc3ccc(N4CCN(C)CC4)cc3)nc2n1-c1ccc2c(n1)[C@@](O)(CC)CC2 | Kuramochi | flow cytometry | – | concentration not given | – | G2/M phase cells | 19.9%
CCCCCC(=O)Oc1c(C)c(O)c(C(=O)/C=C/c2ccccc2)c(OC)c1C | KKU-M213 | SRB | – | – | baseline: normal over KKU-M213 IC50 | selectivity index | 1.11
O=c1ccn([C@@H]2O[C@H](CO)[C@@H](O)[C@H]2O)c(=O)[nH]1 | activated human T cells | – | human | 316 nM | – | T cell proliferation | 38.9% and 22.3% and 48.3% and 23.9% and 38.7%
COc1cc(/C=C/C(=O)N2CCC=CC2=O)cc(OC)c1OC | MDA-MB-468 | qRT-PCR, measured: Caspase6 | – | 30 µM, 6 h | baseline: time zero | mRNA expression | 81.6 ± 11.7%
COc1cc2ncnc(Nc3ccc(Oc4ccccc4)c(C)c3C)c2cc1OC.Cl | SW-620 (KRAS G12V) | resazurin | – | concentration not given, 72 h, together with: trametinib | direction not given | Bliss synergy score | 73.5%
Cn1cc(-c2ccc(-c3cncc(Cl)c3N3CCC4(CCNC4=O)CC3)cc2)cn1 | COLO 205 | gene expression, microarray, measured: KLF10 mRNA | – | concentration not given, 2 h | baseline: untreated cells | log2 fold change | 2.12

Compound | cell line | test | system | conditions | scale | endpoint | result
Nc1ncnc2nc(-c3ccc(N4CCOCC4)nc3)cc(-c3cccc(Br)c3)c12 | activated human T cells | – | human | 100 nM | – | T cell proliferation | 95.4% and 99.2% and 88.2%
CSCC[C@H](NC(=O)[C@H](Cc1ccc(OS(=O)(=O)O)cc1)NC(=O)[C@@H](N)CC(=O)O)C(=O)NCC(=O)N[C@@H](Cc1c[nH]c2ccccc12)C(=O)N[C@@H](CCSC)C(=O)N[C@@H](CC(=O)O)C(=O)N[C@@H](Cc1ccccc1)C(N)=O | HEK293T control virus | agonist, calcium mobilization | – | 0.001024 nM, no receptor expressed | higher = more calcium release | calcium response | 0.098 a.u.
CC(C)(c1ccc(O)cc1)c1ccc(O)cc1 | HepG2 spheroids | Hoechst flow cytometry | – | 0.1 µM, 24 h | – | S phase cells | 7.42 ± 1.41%
C[C@H](Nc1ccc2c(c1)OCCn1cc(N3C(=O)OC[C@H]3C(F)F)nc1-2)C(N)=O | SNU-1076 | cell growth, CellTiter-Glo | – | 120 h | – | Hill coefficient | 0.522
CCn1cc(-c2cc(Cn3ccoc3=N)cc3c2CCN([C@@H](C)c2cc(OC)ccn2)C3=O)c(C(F)(F)F)n1 | HMC18 | cell growth | – | 120 h | – | EC50 | 10.4 µM
Cn1cc(-n2cnc3c(NCc4nc5cc(Cl)c(Cl)cc5[nH]4)nc(N4CCOCC4)nc32)cn1 | MDA-MB-231 | qRT-PCR, measured: ATR | – | 50 nM, 6 h, unit not given | baseline: untreated | mRNA level | 0.681
C[C@]12CCCN1CC1=NNC(=O)c3cc(F)cc4[nH]c2c1c34 | LS174T colorectal cancer cells | cell viability | – | concentration not given, together with: with temozolomide | – | EC50 | > 3 µM
C=CC1=C(C)c2cc3[n-]c(cc4nc(cc5[n-]c(cc1n2)c(C)c5C=C)C(C)=C4CCC(=O)O)c(CCC(=O)O)c3C.[Zn+2] | SH-SY5Y | RNA-seq, measured: ELL2 mRNA | – | 5 µM, 5 h | baseline: untreated cells | fold change | 2.14
CC(C)NCC(O)c1ccc(O)c(O)c1 (stereo not shown) | mouse ventricular cardiomyocytes | – | – | dose not given, 0.247 s | – | sarcomere length | 1.8 µm
Nc1cccc2c1C(=O)N(C1CCC(=O)NC1=O)C2=O (stereo not shown) | RPMI-8226 | flow cytometry, measured: CD154 | – | concentration not given | baseline: comparator compound alone | surface marker level | 54.2%
Cc1cc(Nc2ncc(Cl)c(Nc3ccccc3S(=O)(=O)C(C)C)n2)c(OC(C)C)cc1C1CCNCC1 | CLB-BAR | phosphoproteomics LC-MS/MS, measured: PPP1R12A phosphorylation | – | 200 nM, 60 min | baseline: untreated | log2 fold change | -2.97
CCCCCC/C=C1\C=C(C(F)(F)F)c2cc3c(cc21)OCCO3 | MM1.S bortezomib-resistant | Western blot | – | 0.5 µM, 8 h | – | Nrf2 stabilization | no effect
O=c1[nH]nc(OCCCc2ccc(Cl)cc2)c(NCc2cccnc2)c1Br | HEK-293T | RNA-seq GSEA, measured: HALLMARK_MYC_TARGETS_V2 | – | concentration not given | direction not given | normalized enrichment score | -1.87
CCCCCCCCCCCCCCCCCCOc1ccc(CC(=O)OCCC[N+](C)(C)C)cc1 | NSCLC panel (nine cell lines) | – | – | 10 µM | – | mean growth inhibition | 17.3%
CNC(=O)Nc1ccc(-c2nc(N3CC4CCC(C3)O4)c3cnn(C4CCC5(CC4)OCCO5)c3n2)cc1 | SNU-1040 | – | – | 330 nM, 3 days, 100% DMSO | baseline: vehicle | cell growth | 75.5%
Clc1nc(NCc2ccco2)c2[nH]cnc2n1 | iPSC-derived cardiomyocytes | RNA-seq, measured: chr2 exon ending 242095027 | – | unit not given | baseline: DMSO minus compound | ΔPSI | -0.212
COc1ccc(-n2nc(C(C)=O)s/c2=N\N=C(/C)c2ccc(NC(=O)c3ccc(Cl)cc3)cc2)cc1 | HepG2 | – | – | 2.5 µM | – | viability | 5.86%
O=C(C[C@@H](C(F)F)n1ccc(F)n1)N1CCC(O)(Cn2cnc3c(cnn3-c3ccc(F)cc3)c2=O)CC1 | CAPAN-1 resistant to USP7-797 | SRB viability | – | – | baseline: IC50 resistant over parental | resistance factor | > 376
CN(C)C(=O)c1cncc(-c2cnc3[nH]cc(-c4ccccc4C(F)(F)F)c3c2)c1 | Ba/F3 BCR-ABL wild type | cell proliferation | – | 72 h | – | GI50 | 0.43 ± 0.0719 µM
C=CCOc1c(C)c(O)c(C(=O)/C=C/c2ccccc2)c(OC)c1C | KKU-M213 | SRB | – | – | baseline: normal over KKU-M213 IC50 | selectivity index | 1.01
Cn1cc(Nc2nccc(-c3ccc4c(c3)CN(C3COC3)CC[C@H]4NC(=O)c3cn(C(C)(C)C)nn3)n2)cn1 | human B cells | – | – | 100 nM, 64 h, non-stimulation-regulated genes, together with: CpG ODN2006 | – | number of downregulated genes | 531

For quick reference, copied from above:
Compound | cell line | test | system | conditions | scale | endpoint | result
CC(C)NCC(O)c1ccc(O)c(O)c1 (stereo not shown) | mouse ventricular cardiomyocytes | – | – | dose not given, 0.247 s | – | sarcomere length | 1.8 µm
COc1ccc(NC(=S)N/N=C/c2cccc3cc4ccccc4nc23)cc1 | HeLa | TMRE flow cytometry | – | IC12.5, 48 h, unit not given | baseline: DMSO control | mitochondrial membrane potential | 1.03 ± 0.4
COc1ccc(-c2ccc3c(N4CCOC[C@@H]4C)nc(N4CCOC[C@@H]4C)nc3n2)cc1CO | SNU-1040 | – | – | 0.33 µM, 72 h, 100% DMSO | baseline: vehicle | cell growth | 79.6%
C=CCOc1c(C)c(O)c(C(=O)/C=C/c2ccccc2)c(OC)c1C | KKU-M213 | SRB | – | – | baseline: normal over KKU-M213 IC50 | selectivity index | 1.01
CCn1cc(-c2cc(Cn3ccnc3)cc3c2CCN([C@H](c2cc(OC)ccn2)C2CC2)C3=O)c(C(F)(F)F)n1 | PLC-PRF-5 | cell growth, inhibitor | – | 120 h | – | EC50 | > 30 µM
